Measurements from different studies.
± gives the spread as reported.
Cell line: SK-OV-3

O=C(Cc1ccc2ccccc2c1)N[C@H](Cc1ccccc1)C(=O)N[C@H](Cc1ccc(OP(=O)(O)O)cc1)C(=O)N[C@H](Cc1ccccc1)C(=O)N[C@H](Cc1ccc(OP(=O)(O)O)cc1)C(=O)O
IC50 (cell growth or viability, MTT): > 483 µg/mL

[Cl][Cu][Cl].c1ccc(-c2nnc(-c3ccc4c(c3)OCO4)[nH]2)nc1
IC50 (cell growth or viability, MTT; 24 h): 4.04 µM

Fc1ccc2[nH]c(-c3cc4ccccc4nc3Cl)nc2c1
IC50 (cell growth or viability, MTT; 48 h): > 100 µM

CCC(=O)N1CCC(CCCC(=O)N2CCN(c3nc(-c4cnc(N)nc4C(F)F)nc(N4CCOCC4)n3)CC2)CC1
IC50 (Akt phosphorylation, inhibitor, in-cell western, measured: Akt pSer473; 1 h): 0.04 µM

COc1ccc2cc([C@H](C)C(=O)[O][Pt]([NH2])([NH2])([Cl])([Cl])[O]C(=O)[C@@H](C)c3ccc4cc(OC)ccc4c3)ccc2c1
IC50 (cell growth, MTT; 48 h): 0.08 ± 0.01 µM

O=[N+]([O-])[O-].O=[N+]([O-])[O-].[Cu+2].[Cu+2].c1ccc(-c2nc(-c3ccc4c(c3)OCO4)n[n-]2)nc1.c1ccc(-c2nc(-c3ccc4c(c3)OCO4)n[n-]2)nc1
IC50 (cell growth or viability, MTT; 24 h): 3.81 µM

Cc1ccc2nc(Cl)c(-c3nc4cc(F)ccc4[nH]3)cc2c1
IC50 (cell growth or viability, MTT; 48 h): > 100 µM

COc1ccc(-c2nnc(-c3ccccn3)[nH]2)cc1OC
IC50 (cell growth or viability, MTT; 24 h): > 100 µM

Clc1nc2cc3c(cc2cc1-c1nc2ccccc2[nH]1)OCO3
IC50 (cell growth or viability, MTT; 48 h): 41.6 µM

C=CCc1ccc(OCc2nnc(SCC(=O)Nc3cccc(Cl)c3)o2)c(OC)c1
IC50 (cell growth or viability, MTT; 72 h): 41.1 µM

COc1ccc2cc([C@H](C)C(=O)[O][Pt-2]34([O]C(=O)[C@@H](C)c5ccc6cc(OC)ccc6c5)([NH2+][C@@H]5CCCC[C@H]5[NH2+]3)[O]C(=O)C(=O)[O]4)ccc2c1
IC50 (cell growth, MTT; 72 h): 15.4 ± 0.4 µM

O=C(/C=C/c1ccc2c(c1)C(=O)N(CCCc1ccccc1)CC2)NO
IC50 (cell growth, SRB; 72 h): 1.04 ± 0.38 µM

COc1ccc(CC2COC(=O)C2Cc2ccc3c(c2)OCO3)cc1OC (mixture of isomers)
IC50 (cytotoxicity, MTT; 72 h): 14.4 ± 0.34 µM

C=CCc1ccc(OCc2nnc(SCC(=O)Nc3cccc(Br)c3)o2)c(OC)c1
IC50 (cell growth or viability, MTT; 72 h): 26.3 µM

Clc1ccc2[nH]c(-c3cc4cc5c(cc4nc3Cl)OCO5)nc2c1
IC50 (cell growth or viability, MTT; 48 h): > 100 µM

CCCCCCCCCCCCCCCCC1CC(=O)NCCCN(C)CCCCN(C)CCCN1C (centres unmarked)
IC50 (cell growth or viability, neutral red; 48 h): 2.2 µg/mL

Cc1cc2nc(-c3cc4ccccc4nc3Cl)[nH]c2cc1C
IC50 (cell growth or viability, MTT; 48 h): 9.4 µM

CC(C)(C)c1cc2c(O)c(c1)Cc1cc(C(C)(C)C)cc(c1OCC(=O)NCc1cccnc1)Cc1cc(C(C)(C)C)cc(c1O)Cc1cc(C(C)(C)C)cc(c1OCC(=O)NCc1cccnc1)COC2
IC50 (cell growth or viability, MTT; 72 h): 5.8 µM

C=CCc1ccc(OCc2nnc(SCC(=O)Nc3ccc(F)cc3F)o2)c(OC)c1
IC50 (cell growth or viability, MTT; 72 h): 3.36 µM

Clc1cc2nc(-c3cc4ccccc4nc3Cl)[nH]c2cc1Cl
IC50 (cell growth or viability, MTT; 48 h): 21.4 µM

Repeated from above:
COc1ccc2cc([C@H](C)C(=O)[O][Pt-2]34([O]C(=O)[C@@H](C)c5ccc6cc(OC)ccc6c5)([NH2+][C@@H]5CCCC[C@H]5[NH2+]3)[O]C(=O)C(=O)[O]4)ccc2c1
IC50 (cell growth, MTT; 72 h): 15.4 ± 0.4 µM
